Results of several laboratories.
pEC50, pKd: −log10 of the molar value.
U2AF2: U2AF2 148-342 (Homo sapiens, UniProt P26368)
UniProt P26368, sequence (whole entry, looked up): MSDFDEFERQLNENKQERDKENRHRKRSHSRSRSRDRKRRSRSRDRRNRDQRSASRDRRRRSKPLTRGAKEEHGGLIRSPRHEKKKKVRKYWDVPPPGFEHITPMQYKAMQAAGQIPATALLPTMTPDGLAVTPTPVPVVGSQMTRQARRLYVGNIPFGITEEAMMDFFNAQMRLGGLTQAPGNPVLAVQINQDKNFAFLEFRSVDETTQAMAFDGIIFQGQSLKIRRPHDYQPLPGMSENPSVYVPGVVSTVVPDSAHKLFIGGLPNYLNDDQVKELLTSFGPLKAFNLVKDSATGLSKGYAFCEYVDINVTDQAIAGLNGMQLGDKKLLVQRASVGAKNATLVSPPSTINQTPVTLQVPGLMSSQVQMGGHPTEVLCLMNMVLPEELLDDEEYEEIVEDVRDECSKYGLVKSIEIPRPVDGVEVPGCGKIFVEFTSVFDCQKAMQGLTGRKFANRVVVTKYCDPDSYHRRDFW
B1: JARID2 119-232 (Homo sapiens, UniProt Q92833); sequence looked up; chain QSQPNSPSTTPVKIVEPLLPPPATQISDLSKRKPKTEDFLTFLCLRGSPALPNSMVYFGSSQDEEEVEEEDDETEDVKTATNNASSSCQSTPRKGKTHKHVHNGHVFNGSSRST
B2: PduE (Salmonella enterica, UniProt O31042); sequence looked up; chain MNTDAIESMVRDVLSRMNSLQGDAPAAAPAAGGTSRSAKVSDYPLANKHPEWVKTATNKTLDDFTLENVLSNKVTAQDMRITPETLRLQASIAKDAGRDRLAMNFERAAELTAVPDDRILEIYNALRPYRSTKEELLAIADDLENRYQAKICAAFVREAAGLYVERKKLKGDD
B3: ELM1 S519D (Saccharomyces cerevisiae, UniProt P32801); sequence looked up; chain MSPRQLIPTLIPEWAPLSQQSCIREDELDSPPITPTSQTSSFGSSFSQQKPTYSTIIGENIHTILDEIRPYVKKITVSDQDKKTINQYTLGVSAGSGQFGYVRKAYSSTLGKVVAVKIIPKKPWNAQQYSVNQVMRQIQLWKSKGKITTNMSGNEAMRLMNIEKCRWEIFAASRLRNNVHIVRLIECLDSPFSESIWIVTNWCSLGELQWKRDDDEDILPQWKKIVISNCSVSTFAKKILEDMTKGLEYLHSQGCIHRDIKPSNILLDEEEKVAKLSDFGSCIFTPQSLPFSDANFEDCFQRELNKIVGTPAFIAPELCHLGNSKRDFVTDGFKLDIWSLGVTLYCLLYNELPFFGENEFETYHKIIEVSLSSKINGNTLNDLVIKRLLEKDVTLRISIQDLVKVLSRDQPIDSRNHSQISSSSVNPVRNEGPVRRFFGRLLTKKGKKKTSGKGKDKVLVSATSKVTPSIHIDEEPDKECFSTTVLRSSPDSSDYCSSLGEEAIQVTDFLDTFCRSNEDLPNLTVNNDKQNSDMKTDRSESSSHSSLKIPTPIKAMIRLKSSPKENGNRTHINCSQDKPSSPLMDRTVGKRTVNNSGARKLAHSSNILNFKAYINSEDSDIRETVEDVKTYLNFADNGQI
B4: CCDC93 305-433 (Homo sapiens, UniProt Q567U6); chain SPEKLGTSQLHRRKVISLNKQIAQKTKHLEELRASHTSLQARYNEAKKTLTELKTYSEKLDKEQAALEKIESKADPSILQNLRALVAMNENLKSQEQEFKAHCREEMTRLQQEIENLKAERAPRGDEKT
B5: tnsD 1-318 K235A/H236D (Escherichia coli, UniProt P13991); sequence looked up; chain MRNFPVPYSNELIYSTIARAGVYQGIVSPKQLLDEVYGNRKVVATLGLPSHLGVIARHLHQTGRYAVQQLIYEHTLFPLYAPFVGKERRDEAIRLMEYQAQGAVHLMLGVAASRVKSDNRFRYCPDCVALQLNRYGEAFWQRDWYLPALPYCPKHGALVFFDRAVDDHRHQFWALGHTELLSDYPKDSLSQLTALAAYIAPLLDAPRAQELSPSLEQWTLFYQRLAQDLGLTKSADIRHDLVAERVRQTFSDEALEKLDLKLAENKDTCWLKSIFRKHRKAFSYLQHSIVWQALLPKLTVIEALQQASALTEHSITTR
B6: calponin-3, human; sequence looked up; chain MTHFNKGPSYGLSAEVKNKIASKYDHQAEEDLRNWIEEVTGMSIGPNFQLGLKDGIILCELINKLQPGSVKKVNESSLNWPQLENIGNFIKAIQAYGMKPHDIFEANDLFENGNMTQVQTTLVALAGLAKTKGFHTTIDIGVKYAEKQTRRFDEGKLKAGQSVIGLQMGTNKCASQAGMTAYGTRRHLYDPKMQTDKPFDQTTISLQMGTNKGASQAGMLAPGTRRDIYDQKLTLQPVDNSTISLQMGTNKVASQKGMSVYGLGRQVYDPKYCAAPTEPVIHNGSQGTGTNGSEISDSDYQAEYPDEYHGEYQDDYPRDYQYSDQGIDY
B7: ATG9 1-100 (Saccharomyces cerevisiae, UniProt Q12142); sequence looked up; chain MERDEYQLPNSHGKNTFLSRIFGLQSDEVNPSLNSQEMSNFPLPDIERGSSLLHSTNDSREDVDENDLRVPESDQGTSTEEEDEVDEEQVQAYAPQISDG
B8: OpcA C410S/C192S (Synechocystis sp. PCC 6803, UniProt P73720); sequence looked up; chain MGGKYQRHCPVRFHWSHCMSTTQAPPLVSLQAPKDVSLEAIESELAQIWQTSAQKEEGLIATRATTFSFLVYEPDRVQSLLAALGYYTGPIDGITGPRMTAAIKSAQKALGVTATGLSSPEFKQALQTAFETAHREGNLLSTAERITKPYSPDLEGSGIADTIAASNPCRIITLCPTAEDDQGVQAQLSAYSPIQKTHQNTLICCEYITLRGTSDALERIGGVITELMLPTLPKYVWWKASPEAEYGLFQRLLSHADMIIVDSSIFNNPEQDLLQLAQLVNKPEAIADLNWSRLAPWQELTAEAFDPPERRSAVGEIDQISIDYEKGNHAQALMYLGWVASRLQWTPVSYSYQPGVYEIHKIQFCAPNQRPIEAELAGLPLADTGQVLGDLISLKLGSTNTQAQCGTVLSSGTVGCMRMEAGGGAQNYRVQQVTALDDQNTEQLLGRQLQRWGRDALYDESMAIVLAILQLSQAG
B9: gene 32 protein 22-301 (Enterobacteria phage T4, UniProt P03695); sequence looked up; chain GFSSEDKGEWKLKLDNAGNGQAVIRFLPSKNDEQAPFAILVNHGFKKNGKWYIETCSSTHGDYDSCPVCQYISKNDLYNTDNKEYSLVKRKTSYWANILVVKDPAAPENEGKVFKYRFGKKIWDKINAMIAVDVEMGETPVDVTCPWEGANFVLKVKQVSGFSNYDESKFLNQSAIPNIDDESFQKELFEQMVDLSEMTSKDKFKSFEELNTKFGQVMGTAVMGGAAATAAKKADKVADDLDAFNVDDFNTKTEDDFMSSSSGSSSSADDTDLDDLLNDL
B10: NOTCH4 276-511 (Homo sapiens, UniProt Q99466); sequence looked up; chain NPDNCVSHQCQNGGTCQDGLDTYTCLCPETWTGWDCSEDVDECETQGPPHCRNGGTCQNSAGSFHCVCVSGWGGTSCEENLDDCIAATCAPGSTCIDRVGSFSCLCPPGRTGLLCHLEDMCLSQPCHGDAQCSTNPLTGSTLCLCQPGYSGPTCHQDLDECLMAQQGPSPCEHGGSCLNTPGSFNCLCPPGYTGSRCEADHNECLSQPCHPGSTCLDLLATFHCLCPPGLEGQLCE
B11: TOMM20 cytoplasmic domain, 25-145 (Homo sapiens, UniProt Q15388); N-terminal His-SUMO tag; chain CDRKRRSDPNFKNRLRERRKKQKLAKERAGLSKLPDLKDAEAVQKFFLEEIQLGEELLAQGEYEKGVDHLTNAIAVCGQPQQLLQVLQQTLPPPVFQMLLTKLPTISQRIVSAQSLAEDDVE
B12: human lamin B2; sequence looked up; chain MSPPSPGRRREQRRPRAAATMATPLPGRAGGPATPLSPTRLSRLQEKEELRELNDRLAHYIDRVRALELENDRLLLKISEKEEVTTREVSGIKALYESELADARRVLDETARERARLQIEIGKLRAELDEVNKSAKKREGELTVAQGRVKDLESLFHRSEVELAAALSDKRGLESDVAELRAQLAKAEDGHAVAKKQLEKETLMRVDLENRCQSLQEELDFRKSVFEEEVRETRRRHERRLVEVDSSRQQEYDFKMAQALEELRSQHDEQVRLYKLELEQTYQAKLDSAKLSSDQNDKAASAAREELKEARMRLESLSYQLSGLQKQASAAEDRIRELEEAMAGERDKFRKMLDAKEQEMTEMRDVMQQQLAEYQELLDVKLALDMEINAYRKLLEGEEERLKLSPSPSSRVTVSRATSSSSGSLSATGRLGRSKRKRLEVEEPLGSGPSVLGTGTGGSGGFHLAQQASASGSVSIEEIDLEGKFVQLKNNSDKDQSLGNWRIKRQVLEGEEIAYKFTPKYILRAGQMVTVWAAGAGVAHSPPSTLVWKGQSSWGTGESFRTVLVNADGEEVAMRTVKKSSVMRENENGEEEEEEAEFGEEDLFHQQGDPRTTSRGC
B13: TFC7 1-435 (Saccharomyces cerevisiae, UniProt Q12415); chain MVVNTIYIARHGYRSNWLPEGPYPDPLTGIDSDVPLAEHGVQQAKELAHYLLSLDNQPEAAFASPFYRCLETVQPIAKLLEIPVYLERGIGEWYRPDRKPVIPVPAGYEILSKFFPGVISQEWDSTLTPNEKGETEQEMYMRFKKFWPLFIERVEKEYPNVECILLVTHAASKIALGMSLLGYDNPRMSLNENGDKIRSGSCSLDKYEILKKSYDTIDETDDQTSFTYIPFSDRKWVLTMNGNTEFLSSGEEMNWNFDCVAEAGSDADIKKRQMTKKTSSPIPEADDQTEVETVYISVDIPSGNYKERTEIAKSAILQYSGLETDAPLFRIGNRLYEGSWERLVGTELAFPNAAHVHKKTAGLLSPTEENETTNAGQSKGSSTANDPNIQIQEEDVGLPDSTNTSRDHTGDKEEVQSEKIYRIKERIVLSNVRPM
B14: ND3 1-128 (Yarrowia lipolytica, UniProt Q9B6C7); sequence looked up; chain MNTFIIFIILIPIVGFALLAVNILLAVYKPYNEKLGAFECGLTSFNQTRLAFNAAFILVAILFLPFDLEISTLLPYVMSIYLVSNYGFTIVLLFLLILIIGFVYEINTNALKINKHNKPNTDSLIYKL
UniProt O60826, sequence (whole entry, looked up): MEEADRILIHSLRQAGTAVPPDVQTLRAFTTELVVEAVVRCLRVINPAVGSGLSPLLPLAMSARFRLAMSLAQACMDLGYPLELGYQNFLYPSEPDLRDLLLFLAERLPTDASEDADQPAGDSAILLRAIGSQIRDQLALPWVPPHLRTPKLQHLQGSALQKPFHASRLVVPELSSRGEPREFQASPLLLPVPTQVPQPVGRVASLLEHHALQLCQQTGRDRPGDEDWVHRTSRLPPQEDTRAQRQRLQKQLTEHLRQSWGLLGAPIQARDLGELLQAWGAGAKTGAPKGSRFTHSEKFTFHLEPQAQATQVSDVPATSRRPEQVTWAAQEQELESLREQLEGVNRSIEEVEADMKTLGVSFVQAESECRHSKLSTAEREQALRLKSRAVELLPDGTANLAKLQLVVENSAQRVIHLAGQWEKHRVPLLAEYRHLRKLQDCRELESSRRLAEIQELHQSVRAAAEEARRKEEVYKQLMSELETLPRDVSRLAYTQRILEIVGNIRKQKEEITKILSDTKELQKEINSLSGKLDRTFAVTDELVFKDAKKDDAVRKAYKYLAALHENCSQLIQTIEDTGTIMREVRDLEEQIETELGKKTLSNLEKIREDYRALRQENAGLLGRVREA
UniProt P32270, sequence (whole entry, looked up): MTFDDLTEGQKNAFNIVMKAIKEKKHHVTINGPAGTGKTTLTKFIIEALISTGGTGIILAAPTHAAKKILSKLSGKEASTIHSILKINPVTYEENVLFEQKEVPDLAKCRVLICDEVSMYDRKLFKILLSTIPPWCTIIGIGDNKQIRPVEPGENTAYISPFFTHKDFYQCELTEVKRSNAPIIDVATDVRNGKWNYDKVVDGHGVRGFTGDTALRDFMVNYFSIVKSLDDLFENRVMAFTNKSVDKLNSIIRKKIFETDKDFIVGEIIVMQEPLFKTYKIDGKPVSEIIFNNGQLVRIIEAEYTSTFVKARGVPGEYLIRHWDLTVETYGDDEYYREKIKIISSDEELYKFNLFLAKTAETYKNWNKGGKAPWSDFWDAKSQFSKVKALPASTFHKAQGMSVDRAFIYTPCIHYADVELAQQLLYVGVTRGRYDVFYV
UniProt Q9Z2G0, sequence (whole entry, looked up): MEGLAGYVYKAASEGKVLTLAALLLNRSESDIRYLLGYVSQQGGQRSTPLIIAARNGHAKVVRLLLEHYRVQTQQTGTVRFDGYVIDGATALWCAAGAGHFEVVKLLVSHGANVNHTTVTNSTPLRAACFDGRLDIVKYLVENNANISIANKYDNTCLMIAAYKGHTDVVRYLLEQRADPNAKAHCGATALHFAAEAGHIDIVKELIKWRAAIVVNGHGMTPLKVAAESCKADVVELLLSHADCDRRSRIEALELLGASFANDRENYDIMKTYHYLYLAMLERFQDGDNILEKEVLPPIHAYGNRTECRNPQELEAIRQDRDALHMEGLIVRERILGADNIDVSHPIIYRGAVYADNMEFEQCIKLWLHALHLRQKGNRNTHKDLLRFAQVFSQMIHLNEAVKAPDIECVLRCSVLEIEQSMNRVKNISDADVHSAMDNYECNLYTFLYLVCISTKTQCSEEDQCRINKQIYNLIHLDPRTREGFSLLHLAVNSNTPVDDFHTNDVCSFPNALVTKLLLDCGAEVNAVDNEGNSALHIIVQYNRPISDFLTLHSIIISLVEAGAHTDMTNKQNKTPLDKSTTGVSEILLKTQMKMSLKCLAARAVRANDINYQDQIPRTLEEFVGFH
UniProt Q8TER5, sequence (whole entry, looked up): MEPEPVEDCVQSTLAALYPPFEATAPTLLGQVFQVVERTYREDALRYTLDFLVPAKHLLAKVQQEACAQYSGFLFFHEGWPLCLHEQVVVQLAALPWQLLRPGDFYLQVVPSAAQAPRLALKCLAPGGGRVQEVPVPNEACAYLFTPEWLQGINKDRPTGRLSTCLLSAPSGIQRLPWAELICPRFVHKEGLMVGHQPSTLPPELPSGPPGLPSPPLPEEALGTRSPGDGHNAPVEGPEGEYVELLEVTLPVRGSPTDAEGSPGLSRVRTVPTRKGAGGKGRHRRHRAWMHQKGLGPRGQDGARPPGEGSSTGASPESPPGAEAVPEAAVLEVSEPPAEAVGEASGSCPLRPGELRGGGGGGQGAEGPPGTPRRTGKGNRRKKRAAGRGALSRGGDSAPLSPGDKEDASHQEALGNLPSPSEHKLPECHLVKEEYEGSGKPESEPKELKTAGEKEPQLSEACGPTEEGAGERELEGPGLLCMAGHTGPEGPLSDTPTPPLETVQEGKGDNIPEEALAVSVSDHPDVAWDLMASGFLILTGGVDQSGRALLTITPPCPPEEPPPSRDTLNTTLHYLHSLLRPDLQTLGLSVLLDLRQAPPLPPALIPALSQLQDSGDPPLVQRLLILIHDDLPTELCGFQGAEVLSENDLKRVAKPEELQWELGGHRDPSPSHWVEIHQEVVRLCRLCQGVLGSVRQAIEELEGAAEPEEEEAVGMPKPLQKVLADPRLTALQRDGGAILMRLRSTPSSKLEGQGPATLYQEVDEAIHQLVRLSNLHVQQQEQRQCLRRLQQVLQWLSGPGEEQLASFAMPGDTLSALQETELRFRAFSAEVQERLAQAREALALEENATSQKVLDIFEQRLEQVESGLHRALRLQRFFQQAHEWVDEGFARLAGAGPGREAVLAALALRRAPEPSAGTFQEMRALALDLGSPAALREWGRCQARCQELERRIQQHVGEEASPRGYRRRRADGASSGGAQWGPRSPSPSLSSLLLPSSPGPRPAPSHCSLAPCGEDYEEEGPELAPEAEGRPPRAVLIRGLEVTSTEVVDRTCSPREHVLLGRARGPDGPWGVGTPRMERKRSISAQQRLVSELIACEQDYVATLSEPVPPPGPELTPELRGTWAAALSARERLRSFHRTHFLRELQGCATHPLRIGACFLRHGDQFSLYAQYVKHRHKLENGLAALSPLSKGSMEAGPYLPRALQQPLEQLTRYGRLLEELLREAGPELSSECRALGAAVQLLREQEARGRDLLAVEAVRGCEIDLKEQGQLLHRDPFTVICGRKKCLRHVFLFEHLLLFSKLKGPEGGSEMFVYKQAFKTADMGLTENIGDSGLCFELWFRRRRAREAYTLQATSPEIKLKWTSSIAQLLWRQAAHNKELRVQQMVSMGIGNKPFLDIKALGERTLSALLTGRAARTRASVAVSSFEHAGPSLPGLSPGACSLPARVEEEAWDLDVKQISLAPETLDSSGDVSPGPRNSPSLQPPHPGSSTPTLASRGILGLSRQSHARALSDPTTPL
UniProt P63138, sequence (whole entry, looked up): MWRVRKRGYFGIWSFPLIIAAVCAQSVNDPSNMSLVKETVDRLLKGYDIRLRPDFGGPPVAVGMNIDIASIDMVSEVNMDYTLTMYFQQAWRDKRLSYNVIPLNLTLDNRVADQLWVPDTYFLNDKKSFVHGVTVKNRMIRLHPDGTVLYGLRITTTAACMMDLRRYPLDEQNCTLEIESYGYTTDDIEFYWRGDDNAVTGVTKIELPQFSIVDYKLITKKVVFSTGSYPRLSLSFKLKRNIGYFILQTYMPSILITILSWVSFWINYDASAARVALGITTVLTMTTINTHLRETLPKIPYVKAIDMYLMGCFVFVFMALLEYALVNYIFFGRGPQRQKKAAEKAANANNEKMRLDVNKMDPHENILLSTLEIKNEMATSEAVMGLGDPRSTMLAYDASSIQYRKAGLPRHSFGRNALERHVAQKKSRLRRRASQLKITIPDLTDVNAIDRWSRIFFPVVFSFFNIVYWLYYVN
UniProt P62813, sequence (whole entry, looked up): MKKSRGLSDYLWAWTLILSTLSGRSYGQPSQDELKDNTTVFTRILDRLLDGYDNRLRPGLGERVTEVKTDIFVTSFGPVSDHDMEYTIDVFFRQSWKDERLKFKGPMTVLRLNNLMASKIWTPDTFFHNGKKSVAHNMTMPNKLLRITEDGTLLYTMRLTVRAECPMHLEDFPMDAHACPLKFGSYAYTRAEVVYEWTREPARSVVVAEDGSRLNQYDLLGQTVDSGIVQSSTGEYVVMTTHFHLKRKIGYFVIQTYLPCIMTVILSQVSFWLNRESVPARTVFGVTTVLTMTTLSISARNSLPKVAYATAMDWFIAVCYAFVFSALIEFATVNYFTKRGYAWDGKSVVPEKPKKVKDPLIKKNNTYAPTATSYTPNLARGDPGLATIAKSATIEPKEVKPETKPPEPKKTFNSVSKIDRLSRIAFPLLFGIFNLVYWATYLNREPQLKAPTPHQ
UniProt O95931, sequence (whole entry, unmodified, looked up): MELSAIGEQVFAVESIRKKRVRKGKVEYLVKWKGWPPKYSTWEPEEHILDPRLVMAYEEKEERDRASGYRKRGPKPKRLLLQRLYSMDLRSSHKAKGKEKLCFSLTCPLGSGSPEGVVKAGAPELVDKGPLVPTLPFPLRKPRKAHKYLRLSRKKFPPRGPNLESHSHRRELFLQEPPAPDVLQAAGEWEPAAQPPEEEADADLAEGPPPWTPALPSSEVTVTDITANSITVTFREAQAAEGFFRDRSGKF

Substance	tested on	test	test system	setting	scale	quantity	result
ARHGEF40 (Homo sapiens, UniProt Q8TER5)	ARHGEF11 (Homo sapiens, UniProt O15085)	co-IP				binding	binds
B1 (JARID2 119-232)	SUZ12/RBBP4 SUZ12 76-545 (Homo sapiens)	pull-down		competition		binding	binds
B2 (PduE)	PduG (Salmonella enterica Typhimurium LT2, UniProt O31043)	cross-linking				binding	binds
B3 (ELM1 S519D)	GIN4 (Saccharomyces cerevisiae, UniProt Q12263)	pull-down				binding	binds
B4 (CCDC93 305-433)	CCDC22 280-446 (Homo sapiens, UniProt O60826)	SEC				binding	binds
B5 (tnsD 1-318 K235A/H236D)	tnsC 1-503 (Escherichia coli, UniProt P05846)	dynamic light scattering		together with: ATP		binding	binds
B6 (calponin-3, human)	CYB5R4 knockout human cells	PP4 interaction, 3xFLAG-PP4C IP-MS		concentration not given	reference: CYB5R4 KO over parental	log2 fold change	2.36
ARTKQTARKSTGGKA (H3 peptide residues 1-x; K9me3, N-terminal fluorescein)	CBX7 8-62 L49D/D50C (Homo sapiens, UniProt O95931)	FP	peptide			binding	binds
B7 (ATG9 1-100)	ATG23 M340E (Saccharomyces cerevisiae, UniProt Q06671)	pull-down		15 minutes, 4 °C		binding	binds
B8 (OpcA C410S/C192S)	zwf 1-509 (Synechocystis sp. PCC 6803, UniProt P73411)	BLI				binding	binds
B9 (gene 32 protein 22-301)	Dda helicase (bacteriophage T4, UniProt P32270)	EMSA				binding	binds
KESALRKQDLWLLFDPLFR (TACC3 to 568 550-568 S558D/Y560W/K562L/L567F (Homo sapiens, UniProt Q9Y6A5); sequence looked up)	CLTC 358-574 (Homo sapiens, UniProt Q00610)	peptide array	peptide			binding	binds
AUUACCUCU (ssRNA)	U2AF2	sequencing of bound RNA	RNA	motif only		pKd	5.28
B10 (NOTCH4 276-511)	DLL4 27-400 (Homo sapiens, UniProt Q9NR61)	SPR				binding	binds
B11	Fem1b (Mus musculus, UniProt Q9Z2G0)	pull-down				binding	binds
B7 (ATG9 1-100)	ATG23 A34E (UniProt Q06671)	pull-down		5 µM, 15 min, pH 8, 4 °C, NaCl 150 mM		binding	binds
11-deoxycorticosterone	CYP11B2 (human)	substrate binding, stopped-flow global kinetic fitting	purified enzyme	model, linear, 4 state, CS-IF, together with: no adrenodoxin		pKd	5.56
GAGUGAUUU (ssRNA)	U2AF2	sequencing of bound RNA	RNA	motif only		pKd	5.64
B12 (human lamin B2)	CYB5R4 knockout human cells	PP6 interaction, 3xFLAG-PP6C IP-MS		concentration not given	reference: CYB5R4 KO over parental	log2 fold change	-0.42
B13 (TFC7 1-435)	TFC3 1-1160 (Saccharomyces cerevisiae, UniProt P34111)	cryo-EM				binding	binds
B14 (ND3 1-128)	ND6 1-185 (Yarrowia lipolytica, UniProt Q9B6E9)	cryo-EM				binding	binds
Ivermectin	GABA-A receptor; alpha-1/beta-2/gamma-2 (Rattus norvegicus, UniProt P18508+P62813+P63138)	agonist	HEK293 expressing receptor			pEC50	5.96
DPSDYAEPMDAVVKPRNEEENIYSVPHDS (ARHGAP35 residues 1083-1111; pY1087/pY1105, N-acetyl, C-amide)	RASA1 174-444 R194C/C236S/C261S/C372S/C402S (Homo sapiens, UniProt P20936)	ITC	peptide			binding	binds

Some of these lines once more:
Substance	tested on	test	test system	setting	scale	quantity	result
B6 (calponin-3, human)	CYB5R4 knockout human cells	PP4 interaction, 3xFLAG-PP4C IP-MS		concentration not given	reference: CYB5R4 KO over parental	log2 fold change	2.36
ARTKQTARKSTGGKA (H3 peptide residues 1-x; K9me3, N-terminal fluorescein)	CBX7 8-62 L49D/D50C (Homo sapiens, UniProt O95931)	FP	peptide			binding	binds
